Experimental data from different studies.
Numbered parts are unrelated; each lists some results of a single study.

Sample 1 — technique: protein binding microarray; molecule type: double-stranded DNA, one strand shown; sample: in vitro; concentration: not given; baseline: not given; direction: higher = stronger binding
Target: Histone acetyltransferase KAT6A, winged helix 1, GST fusion (KAT6A, Homo sapiens, UniProt Q92794, residues 1-85)
Setting: 8-mer, flanks averaged, mean of 2 arrays, mostly near background
Residues (chain): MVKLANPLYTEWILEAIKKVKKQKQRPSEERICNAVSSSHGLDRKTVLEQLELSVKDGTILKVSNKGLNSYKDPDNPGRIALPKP
Sequence	E-score
CTAGATCA	-0.155
ACCCGGCA	0.192
CAGCCAGA	-0.156
ATGGCCGA	0.0139
GATTGCAC	-0.0149
ATGAAGCG	0.109
GGCCCCGA	0.179
GTAACGTA	-0.01
CCCCATAG	-0.249
AGGTTTAG	-0.198
AGTCGTTA	-0.14
AAGAAACG	-0.0786
CCCGTCGC	0.44
GGCGTCAC	0.169
AAATCCCA	-0.178
AACTGTCT	-0.101
TAATTCCA	-0.206
ATACAAAT	-0.138
CCGAAAGG	0.00681
TGCCACCA	-0.267
CAGTTGCG	0.0486
ATAATCAA	0.0524
TAGACGAA	-0.0707
CGGTGAAC	0.0948
AAAGGACC	0.0764

Sample 2 — technique: RNA Bind-n-Seq; molecule type: RNA; sample: in vitro; concentration: 365 nM; baseline: no-protein control; direction: higher = stronger binding
Target: RNA binding protein fox-1 homolog 2, RRM domain, GST-SBP tag (RBFOX2, Homo sapiens, UniProt O43251-10, residues 100-194)
Setting: natural RNA segment, single round, ends assumed
Constant ends, left off below: GGGAGUUCUACAGUCCGACGAUC … UGGAAUUCUCGGGUGCCAA
Residues (chain): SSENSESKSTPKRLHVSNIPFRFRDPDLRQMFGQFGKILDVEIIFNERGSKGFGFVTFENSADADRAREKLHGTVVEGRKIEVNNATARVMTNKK
Sequence	RBNS enrichment (R)
CCGCCAGUCCAUCCUAGACACUCCCAGAGGCUGCUAGCUCCGCCCCUCUGGCAUGGCUUUCCUUUCCCAUCGCCUUCGGAGGCCAUUUUGUCUUGAAGUCAAUGCAUGCU	4.1
UUGUUACCCUACACAUUUCAUGGAAGCAUCUUCACAAAAUAUCAGACACAGUGGAAGGGGGAAAAAAAGCUACGAGAUUGUUUUUACACUUUUAGCAAAGUUUCUGUGGA	1.2
GAACAGCCCAGUGCAGUCUAAACUUCAAUUGUGUUGAAACUACUUUAAUAGACAAAGUAAUAAAUCAUGUUUAUCUAUUGAUUUAAACUUCAUCAGUUUUGCAUCCUACU	0.938
UUUGUAAAUAUCUCAUCUCCCACUGGAGAGCCCAGGAGCCUAUUCCUGGCAUGGAUGUUCUGUCCACACUUGAGGCUGGGCGGUGUAUCAGACCCUUCAAGCAGCCUGGC	0.265
ACACGGAAGCACGGGUCUCUUCUCAAUCUUUGCUGCAUUUGGAAAAUGUUCCCUCCCAUCUCAGGCCAGCGCCAUGUCGAGGCAUCUUCAGUCCACCCCUGCCUAAGGCU	0.387
AUUAACUCAGAGGCUCACUACAGAAAUAUGUAAUCAGUGCUGUGCAUCUGUCUGCAGCUAAUGUACCUCCUGGACACCAGGAGGGGAAAAAGCACUUUUUCAAUUGUGCU	0.408
CCGUGGAAGGCCUAGACCCAGCAGAGACCCCUUGGUGGGUCUGCCAUGCCUGUGGGGAAACACUGCUUCAGAAAGCCUUCACCUACCCUCUGCCUCUAUUUCCCAGGACA	1.26
UGACAAGGGUAUUAUCAUGGAGUUCUGCCUAUUCCUACUGGUGUCCACCAGUCACACAUUUGGAAUGUAGAUUCCAAAGACAGAAAAGAUAAAGGGUUUCCCAAGGGUAG	0.406
CCAGUAGACACAAGCAAGAAGACCACACUUCCCCCCGACACAGGAAAGCUGAGACAUUGUCCCCAACUCUUCUUGAUGUAUUUAUUAAUUUAGAGUUUUACCAGCUAUUU	0.544
CCAUUUUUAAAUAGUACUUUCUUUGAGUCAUAAAUUGUAUCUAACCAUCUUGGGUUCUGGUCAGUGCUGCAGGCUCCUGGGCUCCCCUCUGCCCAGUGAGCAACUUAUAC	0.707
GGGUGGUGGAGGCGGUGCCGGGACUUGGCUGAGUGCAGUUUGAGCUCUAGGCUUGUCUCCAUGGGAACAGGAGGGGUGCCUUGUCAGCAAGCUCAUCCGCACAGAAGAGG	0.67
UUGGGGACAAGGCAGGUGUAGGGCAGGUCAGGCCGUUGAACAUCUUCCACUCAAAUCUGCUCAGGUUUGUUAUGCAGCGAUUGUGGCUGUCCGCUGUAUCUCCUCUGUGG	0.933

Sample 3 — technique: universal PBM; molecule type: double-stranded DNA, one strand shown; sample: in vitro; concentration: 600 nM; direction: higher = stronger binding
Target: Sal-like protein 4, full length isoform A (SALL4, Homo sapiens, UniProt Q9UJQ4, residues 1-1053)
Chain of UniProt Q9UJQ4 (whole entry, looked up): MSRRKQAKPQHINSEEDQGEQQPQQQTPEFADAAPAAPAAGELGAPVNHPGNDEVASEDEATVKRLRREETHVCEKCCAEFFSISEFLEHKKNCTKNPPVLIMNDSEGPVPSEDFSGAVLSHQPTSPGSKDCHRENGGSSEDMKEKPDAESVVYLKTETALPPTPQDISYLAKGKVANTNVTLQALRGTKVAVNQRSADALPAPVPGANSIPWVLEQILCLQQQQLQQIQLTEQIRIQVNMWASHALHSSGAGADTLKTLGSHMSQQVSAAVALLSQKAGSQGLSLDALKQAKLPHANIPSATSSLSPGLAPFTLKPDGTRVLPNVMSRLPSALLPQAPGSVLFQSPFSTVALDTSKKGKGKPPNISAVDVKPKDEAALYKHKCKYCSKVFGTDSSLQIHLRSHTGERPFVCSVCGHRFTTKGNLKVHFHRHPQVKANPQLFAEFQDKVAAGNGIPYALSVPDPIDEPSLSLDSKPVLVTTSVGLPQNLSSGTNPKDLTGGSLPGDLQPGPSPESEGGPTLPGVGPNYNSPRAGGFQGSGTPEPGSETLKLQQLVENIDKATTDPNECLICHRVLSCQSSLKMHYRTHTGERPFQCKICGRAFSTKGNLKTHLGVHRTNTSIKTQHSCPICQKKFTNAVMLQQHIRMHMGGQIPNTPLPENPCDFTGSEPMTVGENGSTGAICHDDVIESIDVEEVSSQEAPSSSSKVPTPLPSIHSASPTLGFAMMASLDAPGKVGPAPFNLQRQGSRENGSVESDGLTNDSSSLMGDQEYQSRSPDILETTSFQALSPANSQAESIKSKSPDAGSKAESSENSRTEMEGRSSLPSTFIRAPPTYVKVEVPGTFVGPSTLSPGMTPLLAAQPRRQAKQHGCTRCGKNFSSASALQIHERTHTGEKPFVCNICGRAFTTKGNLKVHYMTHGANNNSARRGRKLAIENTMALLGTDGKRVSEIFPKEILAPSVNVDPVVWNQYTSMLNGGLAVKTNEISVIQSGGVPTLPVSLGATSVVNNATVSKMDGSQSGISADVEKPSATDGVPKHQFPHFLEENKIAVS
Setting: 8-mer, flanks averaged, mean of replicates
Sequence	E-score
CGCTCCAC	-0.187
CTAAGAAC	-0.106
ATGCCCAT	-0.084
GGTATTAC	0.195
AGCTTTTA	0.0548
GACTCAGC	-0.157
AACACCTC	-0.0839
GACATCGA	0.0126
CGGGGAGC	-0.344
AAGAACCC	-0.251
ACCTGTAA	0.129
TATTTCCA	0.321
CAATGATC	0.0992
CCTTTGGA	-0.205
CCGAACCG	-0.413
AAGCGTCT	-0.125
CAAGAGAC	-0.137
AACGCTCA	-0.136
AATGAGAC	-0.0682
GCGTGCCC	-0.345
AAGGCCTA	-0.149
CTGCGACC	-0.181
CCTGGCTA	-0.2
ACCATACA	0.0927
AGGCACAG	-0.159

Sample 4 — technique: RNA Bind-n-Seq; molecule type: RNA; sample: in vitro; concentration: not given; baseline: input RNA pool; direction: higher = stronger binding
Target: RING finger protein unkempt homolog, zinc fingers 1-6, GST-SBP tag (UNK, Homo sapiens, UniProt Q9C0B0, residues 30-357)
Chain of UniProt Q9C0B0 (30-357, looked up): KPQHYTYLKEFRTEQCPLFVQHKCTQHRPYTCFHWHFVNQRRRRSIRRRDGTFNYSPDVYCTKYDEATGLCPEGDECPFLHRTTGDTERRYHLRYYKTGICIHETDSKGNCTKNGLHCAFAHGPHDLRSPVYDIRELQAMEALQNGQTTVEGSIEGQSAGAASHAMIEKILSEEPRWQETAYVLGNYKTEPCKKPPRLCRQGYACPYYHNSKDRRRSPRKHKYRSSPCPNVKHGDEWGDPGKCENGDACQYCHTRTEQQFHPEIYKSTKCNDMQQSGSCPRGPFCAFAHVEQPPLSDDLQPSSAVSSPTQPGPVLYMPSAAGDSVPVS
Setting: RNA with constant flanks, human and mouse sites, ends assumed
Constant ends, left off below: GGGAGUUCUACAGUCCGACGAUC … CAACAGAGGAUUGAGCAUCA
Sequence	bound/input enrichment [ratio]
CAGGGACGCUUUGAUGUAAAAAUUGAAAUUAAGAGCUGAUCACAAGCACAAAUCUUUCCCACUAGCCAUUUAAUAAGUUAAAAAAAGAUACACAAACCUACUAGUCUUGAACAAACUGUC	74
GAGUCUAUGGUGAUGUACAUCGAGUGAAGAUUAUGUUUAAUAAGAAAGAAAAUGCCUUGGUUCAGAUGGCGGAUGCAAAUCAAGCUCAGCUAGCAAUGAACCAUCUAAGUGGUCAGAGAC	0.226
ACUGCAGAACAGUGGAAAAAGAAGUAUGAAAAAGAAAAAGAAAAAAAUAAGAUCCUGCGGAACACUAUUCAGUGGCUUGAAAAUGAGCUCAACAGAUGGCGUAAUGGGGAGACGGUGCCU	0.634
AGUUUGUGCCGUUGCCCUUUCCCCAUAUGCCACUAGUGUGUAGGCAGAUGUCUGAGUCUCUAGGUGGUUUCUCCAUUUUAUAGCAGUUAGCUUUGAUGACCCUACUCCACGAAAAAUAAA	0.774
GUGUGUGGGGUAGCCUUGGCCCCUGCCUUGGCCUUGCCUCUCUUCCCUGUCACCUGCCCCUAGUUAUUUUUUUUUUGACCACCACGUGAUUAUGGUCGGUGCUGCCUCCCCCCCGACCUG	87.1
UUGAAACUUUCUCCAAUUAAAUAUGGCUACCAGCCCCGCAGGAACUUUUGGCCAGCAAGGUUAGCUGCAAGACUCUUAAAACUUCGAUAUAUCAUACUGGGAUCUGCUGUUGGAGGUGGC	0.746
CAUCUAGUUCUGACUCCACUGAUGCAUUCAGAUUACCUGAGGUGGGUGAGCAUCAGUGGGUUCUUGGAUGACUGUUUCCUGACGAUUCUUUUCAUGCUGUACUAUGGAGUAUAUGAAGGG	0.18
AAGAAUAUUCGCUUUCCACUGAUGACACCACAGGAUCUCAUCAACUAUGUGCAGACAGUAGAUUUCAUGAGAACAGACAAUACCUGUGUGAAUUUACUUUUGGAAGCAAGCAAUUACCAA	0.193
AUUCUCUACGACAAGGAUCAUUACAAGUUGGCUCUGGGGCAAAUAAAUAUUGCCAAAAAUUUAGUGGACAAUGUUGCUAAAGAUUAUGUGCGACUGAUGAAGUAUGGCGACUCUCUCUAC	0.301
AAGGAUUCUCUGCCUCGCUUUGUGCGCUCUGAGUUUUAUCAGGAGUUAAUCAAGUAGUAAUUUAGCCAGGCUAUGAAAUCAUCCUGUGAGUUAUUUCCUCCAUAAUAACCCUGCAUUUCC	0.57
UUUUUUUUUUCUGUGUAAAUCAUCAACUAUAAGAAGAAACUAUGGGACUCUAAGCCUGGCUUUAGAGAAUUUACAGUGGACAAAUAGGUUUCAUCAAACCAGUUUUUAAUCAUUCUGACU	0.61

Sample 5 — technique: protein-binding microarray; molecule type: hairpin DNA; sample: in vitro; concentration: not given; baseline: not given; direction: higher = stronger binding
Target: Cyclic AMP-responsive element-binding protein 1, full length (CREB1, Homo sapiens, UniProt P16220, residues 1-327)
Chain of UniProt P16220 (whole entry, looked up): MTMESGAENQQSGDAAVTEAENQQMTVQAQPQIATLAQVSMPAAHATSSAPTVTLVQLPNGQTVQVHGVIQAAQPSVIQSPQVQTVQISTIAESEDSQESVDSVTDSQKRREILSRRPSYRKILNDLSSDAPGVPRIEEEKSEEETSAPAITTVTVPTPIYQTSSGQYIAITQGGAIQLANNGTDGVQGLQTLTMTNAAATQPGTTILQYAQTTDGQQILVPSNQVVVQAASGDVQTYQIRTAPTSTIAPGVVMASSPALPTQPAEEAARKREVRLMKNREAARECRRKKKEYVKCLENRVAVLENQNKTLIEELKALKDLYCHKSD
Setting: whole hairpin DNA, median over replicate spots
Sequence	median fluorescence [a.u.]
GAGGCCGGCTGAGGTCAGCCTCCTGGCTGACCTCAGCCGGCCTCACACTC (5mC at 32)	2490
GAGGCCGACGAGGTCGTGCCTCCTGGCACGACCTCGTCGGCCTCACACTC (5mC at 9 15 29 33 35)	2530
GAGGCCGCATGACGTCAGCCTCCTGGCTGACGTCATGCGGCCTCACACTC	19200
GAGGCCGACGACGCGGTGCCTCCTGGCACCGCGTCGTCGGCCTCACACTC (5mC at 9 29 35)	3760
GAGGCCGGATGACGTCCGCCTCCTGGCGGACGTCATCCGGCCTCACACTC	7700
GAGGCCGACGCGGTCGTGCCTCCTGGCACGACCGCGTCGGCCTCACACTC (5mC at 9 15 29 33 35)	2840
GAGGCCGGCTCACGTCAGCCTCCTGGCTGACGTGAGCCGGCCTCACACTC (5mC at 11)	4380
GAGGCCGCCTGACGTCAGCCTCCTGGCTGACGTCAGGCGGCCTCACACTC	9290
GAGGCCGACGAAGTCGTGCCTCCTGGCACGACTTCGTCGGCCTCACACTC (5mC at 9 15 29 35)	2470
GAGGCCGACCACGTCGTGCCTCCTGGCACGACGTGGTCGGCCTCACACTC (5mC at 9 15 29)	4230
GAGGCCGGCTGACGCGAGCCTCCTGGCTCGCGTCAGCCGGCCTCACACTC (5mC at 15)	5600
GAGGCCGGACGACGTCAGCCTCCTGGCTGACGTCGTCCGGCCTCACACTC (5mC at 10)	9660
GAGGCCGTATGACGTCAGCCTCCTGGCTGACGTCATACGGCCTCACACTC	24100
GAGGCCGACGACCGCGTGCCTCCTGGCACGCGGTCGTCGGCCTCACACTC (5mC at 9 13 15 29 35)	2840
GAGGCCGCCTGACGTCAGCCTCCTGGCTGACGTCAGGCGGCCTCACACTC (5mC at 8)	10500
GAGGCCGGCTGGCGTCAGCCTCCTGGCTGACGCCAGCCGGCCTCACACTC (5mC at 33)	7920
GAGGCCCGATGACGTCAGCCTCCTGGCTGACGTCATCGGGCCTCACACTC (5mC at 37)	22700
GAGGCCGGATGACGCGAGCCTCCTGGCTCGCGTCATCCGGCCTCACACTC	6320

Some of these lines once more (sample 1):
Sequence	E-score
GATTGCAC	-0.0149
GGCGTCAC	0.169
TAGACGAA	-0.0707
AAATCCCA	-0.178
ATACAAAT	-0.138
GGCCCCGA	0.179
ATGAAGCG	0.109
